# Experimental data from different studies.
# A part holds a random share of what one study measured. Positions count from the first letter of the parent shown.

# Set 1
# Target: Ras GTPase-activating protein-binding protein 1, full length (G3BP1, Homo sapiens, UniProt Q13283)
# UniProt Q13283, sequence (whole entry, looked up): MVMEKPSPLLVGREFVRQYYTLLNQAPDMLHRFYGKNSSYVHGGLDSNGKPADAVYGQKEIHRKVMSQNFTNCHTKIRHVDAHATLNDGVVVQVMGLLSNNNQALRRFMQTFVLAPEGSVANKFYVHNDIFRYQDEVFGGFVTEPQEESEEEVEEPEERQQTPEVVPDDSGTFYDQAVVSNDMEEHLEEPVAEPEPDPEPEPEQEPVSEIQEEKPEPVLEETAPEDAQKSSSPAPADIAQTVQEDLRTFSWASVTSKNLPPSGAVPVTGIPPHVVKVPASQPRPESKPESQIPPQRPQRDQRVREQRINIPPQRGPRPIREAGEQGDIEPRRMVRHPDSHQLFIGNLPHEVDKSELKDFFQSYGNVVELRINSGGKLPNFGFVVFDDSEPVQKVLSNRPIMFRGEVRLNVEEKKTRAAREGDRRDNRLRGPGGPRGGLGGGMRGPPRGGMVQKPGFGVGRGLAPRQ
# Technique: RNA Bind-n-Seq
# Form: RNA
# Matrix: in vitro
# Concentration: 200 nM
# Setting: whole 134-nt RNA, ends assumed
# Together with: 150 mM KCl
# Relative to: input library
# Reading: higher = stronger binding
# All sequences stand within: GGGAGUUCUACAGUCCGACGAUC … UGGAAUUCUCGGGUGUCAAGG
Oligonucleotide,log2 enrichment
UUAAAGUAGAGGAACAAAAAGAAGAACAGAAGGAGUUAGAGAAAUCUGAAAAAGAAGAGGAUGAGGAUGAUGAUAGGAAAUCUGAAGACG,0.67
UGUGCUACACAUCGUAUGUACCGAAUCGGGGAAAAAAAGGGGAAAAAAAGGGGAAAAAAAGGGAAAGUAUUAUGUUACGCCGUUCGGAUC,-0.439
UCCUGUGCUACACAUCGUAUGUACCGAAUCGGAAAAAAGGGAAAAAAGGGAAAAAAGGGGAAAGUAUUAUGUUACGCCGUUCGGAUCUGC,-0.569
AGUCCUGUGCUACACAUCGUAUGUACCGAAUCGGAAAGGAAAAAAAGGAAAAAAAGGAAAGUAUUAUGUUACGCCGUUCGGAUCUGCACU,-0.982
UCCUGUGCUACACAUCGUAUGUACCGAAUCGGGUUUUUUUGGGUUUGGGUUUUUUUGGGAAAGUAUUAUGUUACGCCGUUCGGAUCUGCA,-0.348
AGUCCUGUGCUACACAUCGUAUGUACCGAAUCGGAAAAAGGUUUUUGGUUUUUUUGGAAAGUAUUAUGUUACGCCGUUCGGAUCUGCACU,-1.79
GCAGGAAGUAAAAACAAAUGGAAAUGCUUCGGAUAGUGGCAGGGGUGGGGGUUGCUAAGGAAAGGGUGGGAUGGGAGUGGGUAAAGAGUU,1.02
CAAACUUAAAGUCUCCCUUGCUCGGAAGAAGCCUCCAAUGAACAGUAUGCGGGGUGGUCUGCCACCCCGUGAGGGCAGAGGCAUGCCACC,-0.0496
CAAGUCCUGUGCUACACAUCGUAUGUACCGAAUCGGUGGAAAAAAAGGAAAAAGGAAAGUAUUAUGUUACGCCGUUCGGAUCUGCACUUC,-0.687

# Set 2
# Target: RNA binding protein fox-1 homolog 2, RRM domain, GST-SBP tag (RBFOX2, Homo sapiens, UniProt O43251-10, residues 100-194)
# Technique: RNA Bind-n-Seq
# Form: RNA
# Matrix: in vitro
# Concentration: 365 nM
# Setting: natural RNA segment, single round, ends assumed
# Relative to: no-protein control
# Reading: higher = stronger binding
# All sequences stand within: GGGAGUUCUACAGUCCGACGAUC … UGGAAUUCUCGGGUGCCAA
# Construct (chain): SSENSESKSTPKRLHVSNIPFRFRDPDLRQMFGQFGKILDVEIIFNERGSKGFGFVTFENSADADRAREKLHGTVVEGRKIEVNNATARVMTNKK
Oligonucleotide,RBNS enrichment (R)
AAAAUUGCCUUACGUACAUUCCUUUUUCCUUUUUCUGCCUCUUCCCUCAAUAGUUGCCUUUUAGUGCUGUAAUAGUUAAAUCCUACAGCAUAAUCAAUAACUCGCAUAUG,0.578
GAGCUACUCCCAAUUCCACUCUUCUGUGAUUCUGGCUGAGCAAGUUCAUGCCGGUAGAGGCUCAUUAAGUGAGGUCCUGGGCACCCCCCAAACAGGAAGUGUUUUCAGGC,0.239
AAGUUGAAUAAAAAGUCACAGAGGAUGUAAAUUUUGUACAGGACUAGAAUGUAAAUGAAGCUUGCUUGGAAGGGGAAAACUUUAAAUAAAACUUUAUGUAUAAAUUCAAC,1.61
AGCAUGGGAGCCCUUCUCUUCUGAGCCUUGCGUGCCCGUGGACCAGGGUGAGGGCACAGGCUCCAGAACUGCCCAGGAAGGGUGCUCUUACUGCUGGAGCAUGCUACUGU,8.98
UUGUGUUUCACAUUGGGUAGUAUGCAUUCUGUCUGCACUGUCCCACCUUCUCAUCUCUACCUUUUAAGGGAUAUGGAAAGGUCUGGAGCUCUGUCUGACCCCACACUCUC,0.344
UAAACAGCACUAGUACUGUACACUGGUUUUUUUCCCUUGUGUUUGCUGUUGCACACUGAUUGCUGAGGGUGCAUCAAUUACAAGCAUUGAAUACUCCAUCCCCUUCCCUC,0.74
UUAGGGCAGAAGCCAGCUGCAGAAGCCACUUUGAUGUUACCCAAGCCACAGCGCUAGAUAAGCCUCACAGUUGUCCAGGGGAAGGGUUUAGGAAUUGGGUCUUUUGUCCA,0.541
UGACUGAGAAUAGUGACAUGUCUGUCUUGUGACCAGAUAUGAGUGUGCAUAAGGUCCUGUCUAGCCGAGACUGACUGGGGGGGACUGUAUAGGAGACUGACGGGGAGCAG,0.545

# Set 3
# Target: Histone acetyltransferase KAT6A, both winged helices, GST fusion (KAT6A, Homo sapiens, UniProt Q92794, residues 1-181)
# Technique: protein binding microarray
# Form: double-stranded DNA, one strand shown
# Matrix: in vitro
# Concentration: not given
# Setting: 8-mer, flanks averaged, mean of 2 arrays, mostly near background
# Relative to: not given
# Reading: higher = stronger binding
# Construct (chain): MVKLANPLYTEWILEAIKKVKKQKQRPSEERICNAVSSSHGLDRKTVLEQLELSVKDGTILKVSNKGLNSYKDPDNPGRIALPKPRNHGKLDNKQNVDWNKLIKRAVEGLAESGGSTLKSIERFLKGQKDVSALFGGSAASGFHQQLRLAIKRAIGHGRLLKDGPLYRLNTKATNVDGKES
Oligonucleotide,E-score
ATAAGAAA,-0.109
AGTACGCG,0.211
CTCGCCAG,-0.0247
CGGATGGC,0.0917
AATACAAG,-0.0673
ACGGTACC,0.142
GCATCTGA,-0.0504
TAAGCTAA,-0.152
CTCACTTA,-0.14
CGCTTCAC,0.214
GGGGCAGA,-0.251
AATGTTCC,-0.00071
CAATACAG,-0.0235
GATACGAA,0.0107
ACACATGA,-0.156
CACCGTTC,0.0369

# Set 4
# Target: ABI1, truncated, D143A, DHFR fusion (Arabidopsis thaliana)
# Technique: DHFR PCA, deep sequencing
# Matrix: yeast
# Setting: methotrexate growth selection, single substitutions
# Together with: (+)-ABA 0 µM
# Relative to: wild-type fitted maximum
# Reading: higher = stronger binding
# Starting sequence: PYL1, truncated, DHFR fusion (Arabidopsis thaliana); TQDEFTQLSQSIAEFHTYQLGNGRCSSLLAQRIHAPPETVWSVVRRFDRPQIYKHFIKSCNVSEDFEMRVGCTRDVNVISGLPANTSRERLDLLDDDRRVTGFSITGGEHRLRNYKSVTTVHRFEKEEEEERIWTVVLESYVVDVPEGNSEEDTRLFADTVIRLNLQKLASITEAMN; partner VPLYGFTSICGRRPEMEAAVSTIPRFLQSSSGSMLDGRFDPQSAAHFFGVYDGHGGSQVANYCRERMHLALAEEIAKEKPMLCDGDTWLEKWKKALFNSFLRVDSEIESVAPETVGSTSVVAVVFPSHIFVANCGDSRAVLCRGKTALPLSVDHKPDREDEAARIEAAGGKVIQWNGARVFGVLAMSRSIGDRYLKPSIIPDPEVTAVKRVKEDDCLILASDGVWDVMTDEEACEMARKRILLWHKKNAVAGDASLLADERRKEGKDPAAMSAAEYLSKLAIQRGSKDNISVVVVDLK
Variant,relative binding score
Q2D,28%
Q2K,21%
T73D,-4.73%
V145D,-2.06%
Q19R,24.2%
S59E,21.9%
E38W,3.84%
E151N,-5.96%
R88Q,33.7%
A170D,3.67%
G21M,11.2%
F124Y,19.2%
V44M,3.56%
S150N,18%
D3T,11.7%
F157M,7.84%
G148M,-10.2%
V100Q,-0.29%
N85T,59.7%
L156R,2.56%
T160A,9.28%
I162T,9.93%
S140G,5.04%

# For quick reference, copied from above (set 2):
Oligonucleotide,RBNS enrichment (R)
GAGCUACUCCCAAUUCCACUCUUCUGUGAUUCUGGCUGAGCAAGUUCAUGCCGGUAGAGGCUCAUUAAGUGAGGUCCUGGGCACCCCCCAAACAGGAAGUGUUUUCAGGC,0.239
AAGUUGAAUAAAAAGUCACAGAGGAUGUAAAUUUUGUACAGGACUAGAAUGUAAAUGAAGCUUGCUUGGAAGGGGAAAACUUUAAAUAAAACUUUAUGUAUAAAUUCAAC,1.61
UAAACAGCACUAGUACUGUACACUGGUUUUUUUCCCUUGUGUUUGCUGUUGCACACUGAUUGCUGAGGGUGCAUCAAUUACAAGCAUUGAAUACUCCAUCCCCUUCCCUC,0.74
